Measured values pooled from the literature.
Parts stem from different laboratories: compare values within a part only.

Sample 1
Target: RNA binding protein fox-1 homolog 2, RRM domain, GST-SBP tag (RBFOX2, Homo sapiens, UniProt O43251-10, residues 100-194)
Technique: RNA Bind-n-Seq
Form: RNA
Medium: in vitro
Concentration: 365 nM
Setting: natural RNA segment, single round, ends assumed
Baseline: no-protein control
Direction: higher = stronger binding
Target sequence (chain): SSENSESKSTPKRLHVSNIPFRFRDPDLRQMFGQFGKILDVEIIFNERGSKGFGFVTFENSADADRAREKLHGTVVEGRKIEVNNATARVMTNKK
Under “RBNS enrichment (R)”, `GGGAGUUCUACAGUCCGACGAUCCUCACCAGUGGACAAAUAAUAAGGCCUUUUUUUAUUAUUAUUUCUUGUCUUUUUUGAUCUAAUUUAUAUUUUAUAUUGUUGAAUUCUCCCUCCUUUGGCUUGUGGGAUCCUGGAAUUCUCGGGUGCCAA` is recorded as 1.38.
`GGGAGUUCUACAGUCCGACGAUCUGGGCCUGCGAGACCCAAGGCUCACUGCAGCGCGCUCCUGACCCCUCCCUGCAGGGGCUACGUUAGCAGCCCAGCACAUAGCUUGCCUAAUGGCUUUCACUUUCUCUUUUUGGAAUUCUCGGGUGCCAA` — result for “RBNS enrichment (R)”: 0.636.
`GGGAGUUCUACAGUCCGACGAUCAACUCUAACUCGGAGACGUCUAGCUGGCAAUGUUUCUAAAACUUUCACUGGAUUUCUUUAGACAUUGAAGCAAACAUUUUUUUCUAAGAAUUGCUUCUCAGAUGAUGAUAUGGAAUUCUCGGGUGCCAA` — result for “RBNS enrichment (R)”: 0.337.

Sample 2
Target: PABPC1L2, full length, GST fusion (mouse, UniProt A0ABA7IW68)
Technique: RNAcompete
Form: RNA
Medium: in vitro
Concentration: 20 nM
Setting: 7-mer, probes averaged, single round
Baseline: mean of 7-mers
Direction: higher = stronger binding
Construct (chain): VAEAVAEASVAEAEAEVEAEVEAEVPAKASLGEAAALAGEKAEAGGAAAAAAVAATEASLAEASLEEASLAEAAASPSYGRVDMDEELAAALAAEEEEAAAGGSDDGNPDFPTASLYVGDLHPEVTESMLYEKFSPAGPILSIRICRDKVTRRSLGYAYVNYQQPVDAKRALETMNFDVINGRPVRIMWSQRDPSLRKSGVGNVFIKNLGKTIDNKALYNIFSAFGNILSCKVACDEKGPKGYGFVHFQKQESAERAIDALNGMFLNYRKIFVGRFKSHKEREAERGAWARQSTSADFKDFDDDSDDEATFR
The 7-mer Z-score of `CCGAGAG` is reported as -0.151.
`GCGGAUG` gave a 7-mer Z-score of 0.0696.
For `CCCCGUU`, the 7-mer Z-score was -0.447.
The 7-mer Z-score of `GUGACCG` is reported as -0.124.

Sample 3
Target: Transcription factor Sp1 (SP1, Homo sapiens, UniProt P08047, residues 1-785, full length assumed)
UniProt P08047, sequence (whole entry, looked up): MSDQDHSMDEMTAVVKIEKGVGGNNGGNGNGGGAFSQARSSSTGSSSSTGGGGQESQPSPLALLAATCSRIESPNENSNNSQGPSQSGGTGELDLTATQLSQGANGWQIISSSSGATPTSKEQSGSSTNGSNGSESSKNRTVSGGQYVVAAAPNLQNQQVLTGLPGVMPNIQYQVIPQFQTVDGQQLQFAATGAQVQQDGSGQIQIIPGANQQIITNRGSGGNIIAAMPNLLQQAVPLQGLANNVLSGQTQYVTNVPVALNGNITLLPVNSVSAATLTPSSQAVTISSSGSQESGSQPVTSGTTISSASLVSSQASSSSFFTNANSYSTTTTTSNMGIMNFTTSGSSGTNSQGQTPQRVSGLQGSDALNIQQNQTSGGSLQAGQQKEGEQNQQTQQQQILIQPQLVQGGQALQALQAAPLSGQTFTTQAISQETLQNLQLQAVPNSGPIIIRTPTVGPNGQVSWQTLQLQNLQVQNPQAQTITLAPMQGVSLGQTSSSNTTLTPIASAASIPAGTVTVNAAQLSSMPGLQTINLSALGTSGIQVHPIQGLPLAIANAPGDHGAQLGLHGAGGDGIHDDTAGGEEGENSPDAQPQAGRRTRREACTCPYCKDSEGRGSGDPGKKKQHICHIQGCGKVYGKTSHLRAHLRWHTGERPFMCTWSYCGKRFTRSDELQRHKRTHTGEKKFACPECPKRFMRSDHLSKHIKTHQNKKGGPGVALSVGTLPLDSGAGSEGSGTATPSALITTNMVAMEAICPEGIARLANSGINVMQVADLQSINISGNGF
Technique: protein-binding microarray
Form: double-stranded DNA, one strand shown
Medium: in vitro
Concentration: not given
Setting: k-mer, scored over probes, only values ≥0.25
Direction: higher = stronger binding
The E-score of `CGTATATA` is reported as 0.256.
`AAGGGGCT` has an E-score of 0.332.
The E-score of `AAGATACA` is reported as 0.267.

Mixed results
`PhoQ, residues 284 288 289 292 302 303 TLSLKA` gave a fold induction of 1.51 (PhoP, residues 12 14 15 18 19 SEGLL (Escherichia coli, UniProt P23836); Sort-seq, measured: YFP reporter; E. coli; PhoQ-PhoP variant library, together with: 10 µM Mg2+; baseline: high Mg2+ state, higher = stronger signaling).
